Measured values collected from several papers.
Each numbered part is a random draw from the data of one study; scales do not carry over between parts. Changes are numbered by the printed parent chain.

Block 1 — method: DHFR PCA, deep sequencing; matrix: yeast; together with: (+)-ABA 0.39 µM; baseline: wild-type fitted maximum; direction: higher = stronger binding
Target: ABI1, truncated, D143A, DHFR fusion (Arabidopsis thaliana)
Notes: methotrexate growth selection, single substitutions
Starting sequence: PYL1, truncated, DHFR fusion (Arabidopsis thaliana); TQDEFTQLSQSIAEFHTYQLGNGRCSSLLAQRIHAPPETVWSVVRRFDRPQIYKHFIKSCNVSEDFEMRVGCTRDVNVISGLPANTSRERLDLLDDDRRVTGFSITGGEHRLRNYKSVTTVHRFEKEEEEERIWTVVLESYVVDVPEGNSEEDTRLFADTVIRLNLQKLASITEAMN
Substitution	relative binding score [%]
V136R	-10.9
H16W	-5.83
R49D	2.01
A175Q	44.7
S80Y	57.3
D65Q	29.3
R132M	42.7
S42K	34.6
R98W	-9.25
D96G	3.99
V44S	-7.13
E174K	3.23
S140I	-19.3
T39L	62.4
V70P	55.6
R69E	35.1

Block 2 — target: CCNF, cyclin fold, Cln2 fusion (human); method: yeast growth competition, sequencing; matrix: yeast; notes: strong parent motif; baseline: not given; direction: higher = stronger binding
Starting sequence: ORC1 docking peptide (human); PRARKRLELGNLG
Substitution	normalised enrichment score
G13L	3.54
P1Y	4.08
N11S	3.97
E8Q	3.08
P1K	3.01
N11V	4.29
R2E	2.02
P1H	3.3
R6K	3.26
R2Y	2.42
K5R L9F	8.74
K5A	1.12
L7K	1.92
K5F	1.19
L12N	3.68
K5D	0.312
G10C	3.18
L9V	1.74

Block 3 — target: BIRC6 UBC core domain (UniProt Q9NR09); method: yeast two-hybrid; matrix: yeast; notes: mostly zero background; baseline: not given; direction: higher = stronger interaction
B1: TRIM11 RING domain (UniProt Q96F44); chain LSTNLQEEATCAICLDYFTDPVMTDCGHNFCRECIRRCWGQPEGPYACPECRELSPQRNLRP
B2: MARCHF1 RING domain (UniProt Q8TCQ1); chain TAPRSQSRLSVCPSTQDICRICHCEGDEESPLITPCRCTGTLRFVHQSCLHQWIKSSDTRCCELCKYDFIMETKLKPLRKWE
B3: RNF103 RING domain (UniProt O00237); chain WPADMLHCTECVVCLENFENGCLLMGLPCGHVFHQNCIVMWLAGGRHCCPVCRWPSYKKKQPY
B4: RNF182 RING domain (UniProt Q8N6D2); chain AESQASDELECKICYNRYNLKQRKPKVLECCHRVCAKCLYKIIDFGDSPQGVIVCPFCRFETCLPDDEV
B5: MID2 RING domain (UniProt Q9UJV3); chain KMETLESELTCPICLELFEDPLLLPCAHSLCFSCAHRILVSSCSSGESIEPITAFQCPTCRYVISLNHRGL
B6: NFX1 RING domain (UniProt Q12986); chain IEQLTTEKYECMVCCELVRVTAPVWSCQSCYHVFHLNCIKKWARSPASQADGQSGWRCPACQNVSAHVPNTY
B7: RNF6 RING domain (UniProt Q9Y252); chain NSIDSELGKICSVCISDYVTGNKLRQLPCMHEFHIHCIDRWLSENCTCPICRQPVLGSNIAN
B8: RUFY1 RING domain (UniProt Q96T51); chain QALKGHAWLKDDEATHCRQCEKEFSISRRKHHCRNCGHIFCNTCSSNELALPSYPKPVRVCDSCHTLLLQRCSSTAS
B9: ZMYND11 RING domain (UniProt Q15326); chain DEIDWETENHDWYCFECHLPGEVLICDLCFRVYHSKCLSDEFRLRDSSSPWQCPVCRSIKKKNTNKQEM
B10: VPS8 RING domain (UniProt Q8N3P4); chain TRGLNPKQDYCSICLQQYKRRQEMADEIIVFSCGHLYHSFCLQNKECTVEFEGQTRWTCYKCSSSNKVGKLSE
Target sequence (chain): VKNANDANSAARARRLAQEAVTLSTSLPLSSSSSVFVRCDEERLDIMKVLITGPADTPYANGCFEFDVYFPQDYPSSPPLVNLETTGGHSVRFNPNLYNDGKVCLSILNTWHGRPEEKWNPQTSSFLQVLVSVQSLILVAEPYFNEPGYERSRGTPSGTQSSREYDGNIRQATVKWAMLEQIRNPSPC
Sequence	lacZ reporter activity
B1 (TRIM11 RING domain)	0
ASPKIFQKTKCSICNSALELPSVHFLCGHSFHQHCFESYSESDADCPTCLPENRKVMDMI (VPS11 RING domain (UniProt Q9H270))	0
B2 (MARCHF1 RING domain)	0
B3 (RNF103 RING domain)	0
B4 (RNF182 RING domain)	0
B5 (MID2 RING domain)	0
B6 (NFX1 RING domain)	0
B7 (RNF6 RING domain)	0
B8 (RUFY1 RING domain)	0
B9 (ZMYND11 RING domain)	0
DDVLTKDAGECVICLEELLQGDTIARLPCLCIYHKSCIDSWFEVNRSCPEHPAD (ZNRF1 RING domain (UniProt Q8ND25))	0
B10 (VPS8 RING domain)	0

Block 4 — method: RNA Bind-n-Seq; molecule type: RNA; matrix: in vitro; tested at: not given; baseline: input RNA pool; direction: higher = stronger binding
Target: RING finger protein unkempt homolog, zinc fingers 1-6, GST-SBP tag (UNK, Homo sapiens, UniProt Q9C0B0, residues 30-357)
UniProt Q9C0B0, sequence (30-357, looked up): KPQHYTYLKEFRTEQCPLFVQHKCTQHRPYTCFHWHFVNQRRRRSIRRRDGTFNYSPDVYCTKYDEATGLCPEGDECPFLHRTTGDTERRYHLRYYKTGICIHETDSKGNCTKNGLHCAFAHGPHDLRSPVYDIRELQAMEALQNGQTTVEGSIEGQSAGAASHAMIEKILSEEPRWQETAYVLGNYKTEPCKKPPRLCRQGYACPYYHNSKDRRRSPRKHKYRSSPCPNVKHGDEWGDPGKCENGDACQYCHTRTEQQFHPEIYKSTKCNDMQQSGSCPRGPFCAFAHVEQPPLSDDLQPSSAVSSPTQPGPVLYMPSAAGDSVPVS
Notes: RNA with constant flanks, human and mouse sites, ends assumed
Strand	bound/input enrichment
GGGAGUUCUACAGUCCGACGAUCUUCCCUGGAGAGUUCAUGAAGAGCUGGAGUGAUUGUCUCAACAAGGAGGGCUUUGACAAAGUAGACAUCAGCGCUGUUGUGGCAUACACCAUUGCUGUGAAAGAGGACGGUGAGCUCAACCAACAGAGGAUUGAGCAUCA	0.443 ratio
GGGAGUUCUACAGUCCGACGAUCAUUGAGUGCGGCUGGAAGGAUCAGCUAAAGGCACACUGUAAAGGUAAUUAAAGAAAAAGGACUAGAACACGUUACUGUUGAUGACUUGGUGGCUGAAAUCACUCCAAAAGGCAGAGCCCUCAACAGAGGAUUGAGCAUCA	0.19 ratio
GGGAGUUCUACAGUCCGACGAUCUUCAAGAAGUCAAAGCUAAUGAGACAUCAAAAAAGUCACUUAGGGGAAAAACCGAAUAGGUGUGCUGAGUUUGGAAAAAUAUUCCCUGAAAAGUCACAGCUCCUGACACAUCAAAAAAGCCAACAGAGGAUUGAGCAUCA	0.158 ratio
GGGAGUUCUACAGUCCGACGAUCAAAGUGGAGAUCCUGCAGCACGUUAUCGACUACAUCCUGGACCUGCAGCUGGCGCUGGAGACUCACCCUGCUUUGCUGAGACAGCCGCCACCGCCCGCGCCACCUCUCCACCCGGCCGGGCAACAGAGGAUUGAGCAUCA	0.2 ratio
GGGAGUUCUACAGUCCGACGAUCGGAAAAUAUGUGUAUGUAGUAACAGAACUUAUGAAAGGAGGUGAAUUGCUGGAUAAGAUUCUUAGACAGAAGUUUUUCUCAGAGCGAGAGGCCAGCGCUGUCCUGUUUACUAUAACCAAACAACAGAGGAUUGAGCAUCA	0.306 ratio
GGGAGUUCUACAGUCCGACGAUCAUUGCUGUCACCACCAUUGACAAUAUUGGUGCUGGUGUGAUCCAGCCAGGCCGAGGCUUUGUCCUUUAUCCAGUUAAGUACAAGGCCAUUGUUUUCCGGCCAUUUAAAGGGGAGGUCGUGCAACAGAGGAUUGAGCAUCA	0.134 ratio
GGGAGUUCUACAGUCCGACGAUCGCAAAAAGCUGGAAGAGGAGCGGCACAACCUCAUCACAGAGAUGGUUGCACUCAAUCCGGAUUUCAAGCCACCUGCAGAUUACAAACCUCCAGCAACACGUGUGAGUGAUAAAGUCAUGACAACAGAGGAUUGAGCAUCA	0.0903 ratio
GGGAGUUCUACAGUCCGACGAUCGAGCAAAAGUUUAAAAUUUUGUGAAUUUAUUAAAGCUCCGUUUGUUGCUUUUUUCUGUUCUAGUUUAUACUUUUGUAUCAUAUUUUAGGAAAUUUUGCACUGGGUAUUUGAUGGCUCCUGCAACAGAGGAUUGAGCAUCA	4.1 ratio
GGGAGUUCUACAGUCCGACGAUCUGAAAAAGCCUUGAAUAUGCAUGCUGCUUUCAUUUUUAUAAACUUUUUAUUUUUUAACUAUAGCUUUAUUAGUAAUUCCAAAAUGCUGCAAUGUAGCUGAUUUCCUCACUCAGACAGCUGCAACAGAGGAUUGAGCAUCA	56.3 ratio
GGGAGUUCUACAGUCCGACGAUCAGACCACACCUACCUGUCAUCUACUUUCACCAAAGGAGAACGGGCGUUACUGUCCAUUACAGAUAACAGUUCAUCCUCAGACAUUGUGGAGAGCUCAACUUCUUAUAUUAAAAUCUCAAACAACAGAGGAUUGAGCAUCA	0.154 ratio
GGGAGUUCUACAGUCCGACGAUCCCUGAAGAAAACCCUGGGUCACCUUCUAGAGAAUCACCUCUUUCAGCACCUUCAGAUCAUUCUUAGGUCUAAGGUGUAACACCUUUGCAGUACGUCAUGGGUGAUCUAAUACUUCCCCUUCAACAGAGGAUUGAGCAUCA	0.225 ratio

Block 5 — method: protein binding microarray; molecule type: double-stranded DNA, one strand shown; matrix: in vitro; tested at: not given; baseline: not given; direction: higher = stronger binding
Target: Histone acetyltransferase KAT6A, winged helix 1, GST fusion (KAT6A, Homo sapiens, UniProt Q92794, residues 1-85)
Notes: 8-mer, flanks averaged, mean of 2 arrays, mostly near background
Residues (chain): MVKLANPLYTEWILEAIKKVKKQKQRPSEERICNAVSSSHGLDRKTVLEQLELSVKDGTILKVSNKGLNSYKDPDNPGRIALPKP
Strand	E-score
TACAGCAA	-0.0692
ATGAGGGA	-0.148
GGGGGCAC	-0.0997
CAGTCCAA	-0.259
CACAGTGC	0.0874
ATAGAGCG	0.166
ATAATGCG	0.13
GAGCTTGC	-0.0976
CGTGTAAG	0.0356
AGTATGGC	-0.0457
ACACTGAA	-0.212
AAGCTATC	-0.161
GGAAGCAC	-0.00796
GATCTGAC	-0.0126
CAGACGAC	-0.0814
CTTTCCAC	-0.0235
AAATGCGC	0.335
CCGACTGC	0.199
GCGTAAGC	0.302
GCCTGAAA	0.00189
ACTACGCC	0.115
ACATGGTG	-0.114
CCTAGAAC	-0.0867
ACCCCTAG	-0.177
CCCACTCA	-0.229

For quick reference, copied from above (block 2):
Substitution	normalised enrichment score
P1H	3.3
L7K	1.92
K5D	0.312
R2Y	2.42
E8Q	3.08
P1Y	4.08
K5R L9F	8.74
R2E	2.02
